# Values quoted from earlier work that unrelated publications cite.
# Each line is one published result; not all experiments were run side by side. pIC50: −log10 of the molar value.
# Chain of UniProt Q9UPE1 (whole entry, looked up): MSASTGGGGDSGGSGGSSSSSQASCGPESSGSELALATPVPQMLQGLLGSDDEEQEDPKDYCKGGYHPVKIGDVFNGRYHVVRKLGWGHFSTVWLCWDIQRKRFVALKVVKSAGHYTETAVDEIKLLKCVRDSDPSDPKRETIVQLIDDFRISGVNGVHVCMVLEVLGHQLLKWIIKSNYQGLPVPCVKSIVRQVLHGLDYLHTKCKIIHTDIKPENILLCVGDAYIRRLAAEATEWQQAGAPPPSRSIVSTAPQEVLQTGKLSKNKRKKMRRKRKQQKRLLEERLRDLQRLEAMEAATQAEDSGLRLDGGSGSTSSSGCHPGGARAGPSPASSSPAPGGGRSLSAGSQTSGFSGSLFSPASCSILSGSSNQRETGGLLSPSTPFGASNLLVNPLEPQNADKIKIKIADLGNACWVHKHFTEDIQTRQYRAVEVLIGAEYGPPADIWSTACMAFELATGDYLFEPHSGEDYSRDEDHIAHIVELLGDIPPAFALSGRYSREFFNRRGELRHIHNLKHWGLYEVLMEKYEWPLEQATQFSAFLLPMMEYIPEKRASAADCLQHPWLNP
SMILES,target or system,test,system,conditions,how to read,quantity,result
CCOC(=O)C1=C(C)NC(C)=C(C(=O)OC)C1c1cccc([N+](=O)[O-])c1 (stereo not drawn),HepG2,mitochondrial membrane potential,,"concentration not given, Tox21",,mitochondrial toxicity,active
CNC(C)C1CCC(N)C(OC2C(N)CC(N)C(OC3OCC(C)(O)C(NC)C3O)C2O)O1 (stereo not drawn),Pseudomonas aeruginosa,,clinical isolate RKI-No_359/11,,,MIC,> 8 µg/mL
C[C@H]1COCCN1c1nc(-c2cnc(N)cc2C(F)F)nc(N2CCOCC2)n1,SK-N-FI,,,,,GI50,0.449 µM
COc1cc2c(Oc3ccc4[nH]c(C)cc4c3F)ccnc2cc1OCC1(N)CC1,,,rat,oral,,oral bioavailability,~34%
CC1(C)S[C@@H]2[C@H](NC(=O)[C@H](N)c3ccccc3)C(=O)N2[C@H]1C(=O)O,Pseudomonas aeruginosa,,clinical isolate RKI-No_359/11,,,MIC,> 16 µg/mL
C=C[C@@H]1C[C@]1(NC(=O)[C@@H]1C[C@@H]2CN1C(=O)[C@H](C(C)(C)C)NC(=O)O[C@@H]1C[C@H]1CCCCCc1nc3ccc(OC)cc3nc1O2)C(=O)NS(=O)(=O)C1CC1,CYP2B6,inhibitor,human liver microsomes,,,pIC50,4.18
Nc1cc(C(F)(F)F)c(-c2nc(N3CCOCC3)nc(N3CCOCC3)n2)cn1,"SRPK3 (Homo sapiens, UniProt Q9UPE1)",enzyme activity,,10 µM,relative to: untreated,remaining activity,77%
CN(C)C(=O)c1cc2cnc(Nc3ccc(N4CCNCC4)cn3)nc2n1C1CCCC1,,measured: anemia,advanced solid tumour or lymphoma patients,"dose not given, 3 weeks on 1 week off, any grade",relative to: patients,adverse event incidence,33.6%
Cc1cc(-c2nccc3c2ccn3CC(=O)Nc2ccc(-c3cnccn3)cn2)ccn1,,,rat,"60 mg/kg/day, 1 month, repeat dosing",,"Cmax, total",27.9 µM
CO[C@@H](C)Cn1c(=O)n(C)c2cnc3ccc(-c4cncc(C(C)(C)O)c4)cc3c21,,measured: rash,cancer patients,"dose not given, monotherapy",,patients with related adverse event,13.5%
CNCc1cn(S(=O)(=O)c2cccc(F)c2)c(-c2ccc(F)cc2F)c1OC,CYP3A,enzyme activity,,,,pIC50,4.93
Cc1ccc(O)c([C@H](CCN(C(C)C)C(C)C)c2ccccc2)c1,HepG2,mitochondrial membrane potential,,"concentration not given, Tox21",,mitochondrial toxicity,active
